Measurements gathered from unrelated publications.
Several values in a cell are separate wells, animals, samples, runs or records. Numbers after ± are the reported error.

With `CNc1ncnc2c1ncn2C1OC(CO)C(O)C1O` (stereo not drawn) the AP-TGFα release was 0.79% and 1.53% and 2.03% (mock-transfected cells; TGFα shedding, agonist; 1 µM; baseline: unstimulated vehicle control).
For `COc1ccccc1-c1ccncc1C(=O)Nc1nnc(OCc2ccc(Cl)cc2)s1`, the colony count was 78 and 66 and 71 and 76 and 81 (DLD-1 parental; 1 µM).
`Cc1ncsc1-c1ccc(C(C)NC(=O)C2CC(O)CN2C(=O)C(NC(=O)CCCCCCCCCCN2CCCC(Nc3ncc(Cl)c(Nc4ccccc4S(=O)(=O)C(C)C)n3)C2)C(C)(C)C)cc1` (stereo not drawn): “log2 fold change” -2.12 (22Rv1; RNA-seq, item: RPP25 mRNA; concentration not given; baseline: DMSO).
For `CO[C@@H]1[C@@H](OC(N)=O)[C@@H](O)[C@H](Oc2ccc3c(O)c(NC(=O)c4ccc(O)c(CC=C(C)C)c4)c(=O)oc3c2C)OC1(C)C`, the colony count was 5.5 (HCT-116 parental; 200 µM, replicate 1).
For `O=C(C[Se]C(=O)c1ccc2ccccc2c1)Nc1cccc(C(F)(F)F)c1`, the mean TGI was 3.58 µM (NCI60 prostate subpanel (PC-3, DU-145); total growth inhibition, inhibitor; five-dose).
For `CN1CCN(C(=O)c2ccc(-c3cc4c(N5CCC[C@H](C(=O)NCc6ccc(OC(F)(F)F)cc6)C5)ncnc4[nH]3)cc2)CC1`, the inhibition was 27.5% (NCI-H3122; cell growth or viability, MTT; 0.04 µg/mL, 72 h).
The selectivity index of `NC1=C(Cl)C(=O)c2cccc([N+](=O)[O-])c2C1=O` is reported as 1.08 (HuCC-A1; MTT; baseline: IC50 MRC-5 over IC50 HuCC-A1).
With `CNS(=O)(=O)Nc1nccc(Cc2c(C)c3ccc(Oc4ncccc4F)cc3oc2=O)c1F` the IC50 was 0.0193 µM (OCI-AML-5; cell viability; 7 days).
With `CCN(C(=O)c1cc(F)ccc1Oc1nncnc1N1CCC2(C1)CN([C@H](CCCN(C)CCOC)C(C)C)C2)C(C)C` the GI50 was greater than 10 µM (Hs-578T; cell growth or viability; 72 h).
`C=CS(=O)(=O)NCCCCOCc1cn(CCCCNS(=O)(=O)C=C)n[n+]1C` gave an IC50 of greater than 50 µM (L929; viability, alamarBlue; 3 days).
`CC[C@@H](C)[C@@H](NC(=O)[C@@H](Cc1ccc(O)cc1)NC(=O)[C@H]1CCCN1C(=O)[C@@H](CCCNC(=N)N)NC(=O)[C@H](N)Cc1c[nH]cn1)C(=O)N[C@H](C)C(=O)N[C@H](Cc1c[nH]cn1)C(=O)N[C@H](CCCNC(=N)N)C(=O)N[C@@H](C(=O)N[C@H](Cc1ccc(O)cc1)C(=O)N[C@H](CO)C(=O)N[C@H](Cc1ccccc1)C(=O)NCC(=O)NCC(=O)NCC(=O)N[C@@H](CCCCNC(=O)CCCC[C@@H]1SC[C@@H]2NC(=O)N[C@@H]21)C(N)=O)C(C)C` gave a binding rate of 2.83% and 2.56% and 2.85% (HEK293T-OFP cells; flow cytometry; concentration not given, added: biotin-labelled peptide).
For `O=C(N[C@@H](Cc1ccc(OCCCCC2CCNCC2)cc1)C(=O)O)c1nc2ccccc2o1.O=C(O)C(F)(F)F`, the ADP-induced aggregation was 0.589 and 0.574 and 0.633 and 0.782 and 0.881 (platelets; impedance aggregometry; human, diluted whole blood; 75 nM, added: ADP; baseline: untreated).
`O=C(N1CCCC1)n1cc(-c2ccc(-c3ccccc3)cc2)nn1` gave an SILAC ratio of 0.89 (mouse T cells; N-terminal labelling proteomics, item: TMSB4X N-terminal peptides; 0.001 µM, 6 h; baseline: DMSO).
`O=C(C[Se]C(=O)c1cc2ccccc2o1)Nc1cccc(C(F)(F)F)c1` has a mean TGI of 3.18 µM (NCI60 prostate subpanel (PC-3, DU-145); total growth inhibition, inhibitor; five-dose).
For `CC(C)c1ccc(N(C)c2ccc3c(c2)OCC[C@H]3CNc2cnccc2C(=O)O)cc1`, the IC50 was no less than 10 µM (MeWo; cell viability, CellTiter-Glo; 7 days).
With `N#Cc1cccc(/C=C/C(=O)c2ccc(O)cc2)c1` the fold change was 28.4 (U-87 MG; item: DNAJB4; concentration not given; baseline: untreated).
`Cc1cccc(-c2cccc(C)n2)n1.Cc1cccc(-c2cccc(C)n2)n1.F[P-](F)(F)(F)(F)F.F[P-](F)(F)(F)(F)F.[Ru+2].c1ccc(-c2nc3c4cccnc4c4ncccc4c3[nH]2)cc1` has an EC50 of 14.2 ± 0.9 µM (SK-MEL-28; cell viability; normoxia, added: blue light 453 nm, 100 J/cm2).
For `Cn1ncc2cc(-c3cncc(Cl)c3N3CCC4(CCNC4=O)CC3)ccc21`, “fold change in expression” read -26.3 (LS174T; microarray, item: CXCL8; concentration not given, 24 h, gene set IL-8; baseline: untreated cells).
Under “cells in S phase”, `COc1cc(N2CCN(C(=O)C3CCCN3)CC2)ccc1Nc1ncc(Cl)c(Nc2ccccc2P(C)(C)=O)n1` (stereo not drawn) is recorded as 7.8% (NCI-H3122; flow cytometry; 500 nM, 24 h).
`Cc1c(Cl)cccc1Nc1ccccc1C(=O)[Se]CC(=O)Nc1cccc(C(F)(F)F)c1` has a GI50 of 1.61 µM (NCI60 prostate subpanel (PC-3, DU-145); cell growth, inhibitor; five-dose).
`O=C(Nc1nnc2c1c(-c1ccc(Cl)cc1)nc1sc(=Cc3ccco3)c(=O)n12)c1ccccc1` (mixture of isomers) gave a cell growth of 32.6% (SNB-19; SRB; 10 µM, NCI60 single-dose screen; baseline: untreated).
Under “log2 fold change”, `C[C@@H]1Cc2c([nH]c3ccccc23)[C@@H](c2c(F)cc(/C=C/C(=O)O)cc2F)N1C12CC(C1)C2` is recorded as 1.64 (MCF7; RNA-seq, item: PSCA mRNA; 1 µM, 24 h, E2-suppressed gene; baseline: DMSO vehicle).
`CN1CCCNC(=O)c2cccc(c2)C(=O)NCCCN(C)CCCNc2cccc3c2C(=O)c2cccc(c2C3=O)NCCC1` — result for “log2 fold change”: 0.704 (SAS; RNA-seq, item: GABPB1-AS1 mRNA; 1 µM, 6 h; baseline: untreated cells).
`COC1CN([C@H]2CC[C@H]([C@@]3(C)Oc4c(Cl)cc(C(=O)NCc5c(SC)cc(C)[nH]c5=O)c(C)c4O3)CC2)C1`: “log2 fold change” 1.61 (RNA-seq, item: FNBP1L; human, whole blood; dose not given, 24 h; baseline: pretreatment baseline).
For `O=C(C[Se]C(=O)c1cc2ccccc2[nH]1)Nc1cccc(C(F)(F)F)c1`, the mean TGI was 3.09 µM (NCI60 prostate subpanel (PC-3, DU-145); total growth inhibition, inhibitor; five-dose).
`CC[C@H](C)[C@H](NC(=O)[C@@H](NC(=O)[C@H](CCC(=O)O)NC(=O)[C@H](C)NC(=O)[C@H](C)NC(=O)[C@H](CCC(=O)O)NC(=O)[C@H](Cc1ccc(C(=O)c2ccccc2)cc1)NC(=O)[C@H](Cc1ccccc1)NC(=O)[C@@H](NC(=O)[C@@H](NC(=O)[C@H](CCCNC(=N)N)NC(=O)[C@H](C)NC(=O)[C@H](CC(N)=O)NC(=O)[C@H](CCCCN)NC(=O)[C@H](CCCNC(=N)N)NC(=O)[C@H](CCCCN)NC(=O)[C@H](CCCNC(=N)N)NC(=O)[C@H](CCCCN)NC(=O)[C@@H]1CCCN1C(=O)[C@H](CCCNC(=N)N)NC(=O)[C@H](CCCCN)NC(=O)[C@H](CCCNC(=N)N)NC(=O)[C@H](CCCNC(=N)N)NC(C)=O)C(C)C)[C@@H](C)O)[C@@H](C)CC)C(N)=O` gave a responder cells of 93% (HeLa cells; calcium release, Fluo-4 imaging; 40 µM).
For `CC1(C)CC[C@@]2(CO)C(=C3C=C[C@@H]4[C@@]5(C)CC[C@H](O)[C@@](C)(CO)[C@@H]5CC[C@@]4(C)[C@]3(C)C[C@@H]2O)C1`, the protein level was 0.38 and 0.221 and 0.531 (HepG2, negative control siRNA; Western blot, item: phospho-mTOR; concentration not given, high dose, unit not given, added: ethanol; baseline: β-actin).
The EC50 of `Cc1cccc(-c2cccc(C)n2)n1.Cc1cccc(-c2cccc(C)n2)n1.F[P-](F)(F)(F)(F)F.F[P-](F)(F)(F)(F)F.[Ru+2].c1ccc2c(c1)Cc1cc(-c3nc4c5cccnc5c5ncccc5c4[nH]3)ccc1-2` is reported as 23.6 ± 1.1 µM (SK-MEL-28; cell viability; 1% O2, added: green light 523 nm, 100 J/cm2).
With `COC(=O)c1cc(NC2=NC(=O)C(=Cc3ccc(N(C)C)cc3)S2)ccc1OC(C)=O` the metabolite level was 0.8 fold change (MCF7; GC-MS, item: Inosine; 1 µM; baseline: DMSO).
With `CSCC[C@H](NC(=O)[C@H](CCC(N)=O)NC(=O)[C@H](CCCCN)NC(=O)[C@H](CCCNC(=N)N)NC(=O)[C@H](Cc1ccc(O)cc1)NC(=O)[C@H](CCCNC(=N)N)NC(=O)[C@H](CO)NC(=O)[C@H](Cc1ccc(O)cc1)NC(=O)[C@H](CO)NC(=O)[C@H](CC(=O)O)NC(=O)[C@@H](NC(=O)[C@@H](N)Cc1ccccc1)[C@@H](C)O)C(=O)N[C@@H](C)C(=O)N[C@H](C(=O)N[C@@H](CCCCN)C(=O)N[C@@H](CCCCn1cc(C[C@H](NC(=O)CNC(=O)[C@H](CO)NC(=O)[C@H](CCCNC(=N)N)NC(=O)[C@H](CO)NC(=O)[C@H](CC(C)C)NC(=O)[C@H](CC(C)C)NC(=O)CNC(=O)[C@H](C)NC(=O)[C@H](CC(C)C)NC(=O)[C@H](CCCNC(=N)N)NC(=O)[C@H](Cc2c[nH]cn2)NC(=O)[C@@H](NC(=O)[C@@H](N)C(C)C)[C@@H](C)O)C(=O)N[C@H](C(=O)N[C@H](C(=O)N[C@@H](CCCCN)C(=O)N[C@@H](CC(N)=O)C(=O)N[C@@H](CC(N)=O)C(=O)N[C@@H](Cc2ccccc2)C(=O)N[C@H](C(=O)N2CCC[C@H]2C(=O)N[C@H](C(=O)N[C@@H](CC(N)=O)C(=O)N[C@H](C(=O)NCC(=O)N[C@@H](CO)C(=O)N[C@@H](CCCCN)C(=O)N[C@@H](C)C(=O)N[C@@H](Cc2ccccc2)C(N)=O)C(C)C)[C@@H](C)O)C(C)C)C(C)C)C(C)C)nn1)C(=O)N[C@@H](Cc1ccc(O)cc1)C(=O)N[C@@H](CC(C)C)C(=O)N[C@@H](C)C(=O)N[C@@H](C)C(=O)N[C@H](C(=O)N[C@@H](CC(C)C)C(=O)NCC(=O)N[C@@H](CCCCN)C(=O)N[C@@H](CCCNC(=N)N)C(=O)N[C@@H](Cc1ccc(O)cc1)C(=O)N[C@@H](CCCCN)C(=O)N[C@@H](CCC(N)=O)C(=O)N[C@@H](CCCNC(=N)N)C(=O)N[C@H](C(=O)N[C@@H](CCCCN)C(=O)N[C@@H](CC(N)=O)C(=O)N[C@@H](CCCCN)C(N)=O)C(C)C)C(C)C)C(C)C` the pA2 was 5.5 (transfected COS-7 cells; cAMP accumulation, antagonist; added: VIP).
`C=CC(=O)N1[C@H](c2ccc3c(c2)OCO3)c2[nH]c3ccccc3c2C[C@@H]1C(=O)NC`: “mean neuron degeneration” 15.4% (rat DRG neurons; 30 µM, 48 h, added: vincristine 40 nM).
For `C#CCOC(=O)[C@@]1(C)C=C(C(=O)Nc2cccc(C(=O)Nc3ccc(C)c(Nc4nccc(-c5cccnc5)n4)c3)c2)C(=O)CC1`, the phospho-c-Jun level was 0.815 (SH-SY5Y MKK7 active; western blot, item: phospho-c-Jun Ser73; 0.3 µM, unit not given; baseline: doxycycline without inhibitor).
`CCN(CC)CC(=O)Nc1cccc(-n2cc(-c3ccc4ccc(-c5cn(-c6cccc(NC(=O)CN(CC)CC)c6)nn5)cc4c3)nn2)c1` has a fold regulation of 1.12 (RCC4; PCR angiogenesis array, item: ID1; 5 x IC50, 6 h, normoxia; baseline: untreated).

For quick reference, copied from above:
Under “log2 fold change”, `C[C@@H]1Cc2c([nH]c3ccccc23)[C@@H](c2c(F)cc(/C=C/C(=O)O)cc2F)N1C12CC(C1)C2` is recorded as 1.64 (MCF7; RNA-seq, item: PSCA mRNA; 1 µM, 24 h, E2-suppressed gene; baseline: DMSO vehicle).
`CN1CCCNC(=O)c2cccc(c2)C(=O)NCCCN(C)CCCNc2cccc3c2C(=O)c2cccc(c2C3=O)NCCC1` — result for “log2 fold change”: 0.704 (SAS; RNA-seq, item: GABPB1-AS1 mRNA; 1 µM, 6 h; baseline: untreated cells).
